Published values gathered from unrelated publications.
Compare with care: the assays were run in different laboratories. ± gives the spread as reported.
SCTR: Secretin receptor (SCTR, Homo sapiens, UniProt P47872)
Chain of UniProt P47872 (whole entry, looked up): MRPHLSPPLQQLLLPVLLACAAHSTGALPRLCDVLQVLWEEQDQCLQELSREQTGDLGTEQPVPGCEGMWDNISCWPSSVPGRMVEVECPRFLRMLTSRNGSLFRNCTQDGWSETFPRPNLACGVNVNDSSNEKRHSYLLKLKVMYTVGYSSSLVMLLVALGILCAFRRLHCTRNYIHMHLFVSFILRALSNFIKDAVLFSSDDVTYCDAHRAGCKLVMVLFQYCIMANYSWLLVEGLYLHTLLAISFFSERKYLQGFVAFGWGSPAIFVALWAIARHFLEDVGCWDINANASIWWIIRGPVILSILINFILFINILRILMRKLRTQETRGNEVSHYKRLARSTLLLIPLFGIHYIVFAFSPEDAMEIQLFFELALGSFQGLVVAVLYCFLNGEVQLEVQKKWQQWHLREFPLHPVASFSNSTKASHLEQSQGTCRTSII
Chain of UniProt Q6GI75 (whole entry, looked up): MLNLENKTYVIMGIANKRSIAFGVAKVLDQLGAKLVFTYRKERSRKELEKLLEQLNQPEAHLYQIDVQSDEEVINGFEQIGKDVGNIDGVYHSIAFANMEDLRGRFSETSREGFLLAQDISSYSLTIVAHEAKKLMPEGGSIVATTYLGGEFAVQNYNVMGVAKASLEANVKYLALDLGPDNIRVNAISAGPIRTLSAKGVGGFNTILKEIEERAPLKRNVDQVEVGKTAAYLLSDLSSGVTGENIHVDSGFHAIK
Chain of UniProt Q14191 (whole entry, looked up): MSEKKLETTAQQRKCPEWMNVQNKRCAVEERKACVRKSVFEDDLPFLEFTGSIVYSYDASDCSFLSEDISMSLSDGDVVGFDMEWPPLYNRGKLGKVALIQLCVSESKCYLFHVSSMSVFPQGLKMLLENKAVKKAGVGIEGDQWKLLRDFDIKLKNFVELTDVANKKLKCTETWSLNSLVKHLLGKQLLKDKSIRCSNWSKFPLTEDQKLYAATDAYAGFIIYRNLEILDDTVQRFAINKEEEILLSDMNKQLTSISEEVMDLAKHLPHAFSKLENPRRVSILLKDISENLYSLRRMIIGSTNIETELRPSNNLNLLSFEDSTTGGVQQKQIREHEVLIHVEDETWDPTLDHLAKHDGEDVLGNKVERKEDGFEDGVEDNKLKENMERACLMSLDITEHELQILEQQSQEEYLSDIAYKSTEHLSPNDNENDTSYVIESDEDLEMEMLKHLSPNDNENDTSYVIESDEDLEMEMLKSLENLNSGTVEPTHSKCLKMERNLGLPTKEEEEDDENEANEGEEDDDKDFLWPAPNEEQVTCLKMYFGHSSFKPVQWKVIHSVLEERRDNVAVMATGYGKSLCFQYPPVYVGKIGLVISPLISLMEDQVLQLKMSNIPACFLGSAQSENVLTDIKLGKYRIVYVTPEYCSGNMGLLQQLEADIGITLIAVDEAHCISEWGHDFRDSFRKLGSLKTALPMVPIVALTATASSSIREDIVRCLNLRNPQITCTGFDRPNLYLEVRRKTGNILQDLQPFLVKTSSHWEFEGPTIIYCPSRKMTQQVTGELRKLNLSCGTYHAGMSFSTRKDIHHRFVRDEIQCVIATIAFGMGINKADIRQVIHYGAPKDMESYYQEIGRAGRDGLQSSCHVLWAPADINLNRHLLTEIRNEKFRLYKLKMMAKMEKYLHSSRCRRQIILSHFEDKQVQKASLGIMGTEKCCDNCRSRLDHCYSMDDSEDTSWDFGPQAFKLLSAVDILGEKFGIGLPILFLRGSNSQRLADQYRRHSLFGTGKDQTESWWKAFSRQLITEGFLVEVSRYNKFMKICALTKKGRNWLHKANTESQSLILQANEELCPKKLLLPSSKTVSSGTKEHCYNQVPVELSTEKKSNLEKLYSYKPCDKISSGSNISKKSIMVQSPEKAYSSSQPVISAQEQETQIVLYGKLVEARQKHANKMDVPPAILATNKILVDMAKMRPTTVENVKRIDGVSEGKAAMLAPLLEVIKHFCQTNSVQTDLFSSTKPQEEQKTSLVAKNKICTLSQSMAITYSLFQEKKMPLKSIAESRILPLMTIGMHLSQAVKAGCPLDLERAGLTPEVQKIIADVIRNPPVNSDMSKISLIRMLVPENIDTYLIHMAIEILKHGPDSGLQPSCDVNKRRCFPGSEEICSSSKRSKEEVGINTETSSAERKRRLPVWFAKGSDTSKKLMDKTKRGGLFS
Chain of UniProt Q8VHW5 (whole entry, looked up): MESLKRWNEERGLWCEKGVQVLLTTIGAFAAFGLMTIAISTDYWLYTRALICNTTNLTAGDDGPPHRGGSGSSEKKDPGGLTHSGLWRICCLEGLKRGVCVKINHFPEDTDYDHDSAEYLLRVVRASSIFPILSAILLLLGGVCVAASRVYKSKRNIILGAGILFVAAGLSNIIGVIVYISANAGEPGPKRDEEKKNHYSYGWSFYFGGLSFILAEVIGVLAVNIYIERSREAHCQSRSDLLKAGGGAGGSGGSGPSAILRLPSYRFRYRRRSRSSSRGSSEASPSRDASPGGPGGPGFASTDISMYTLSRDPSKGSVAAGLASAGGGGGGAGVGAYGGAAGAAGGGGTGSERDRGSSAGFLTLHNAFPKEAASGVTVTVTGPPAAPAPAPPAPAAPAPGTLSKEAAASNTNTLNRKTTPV
Chain of UniProt Q16512 (whole entry, looked up): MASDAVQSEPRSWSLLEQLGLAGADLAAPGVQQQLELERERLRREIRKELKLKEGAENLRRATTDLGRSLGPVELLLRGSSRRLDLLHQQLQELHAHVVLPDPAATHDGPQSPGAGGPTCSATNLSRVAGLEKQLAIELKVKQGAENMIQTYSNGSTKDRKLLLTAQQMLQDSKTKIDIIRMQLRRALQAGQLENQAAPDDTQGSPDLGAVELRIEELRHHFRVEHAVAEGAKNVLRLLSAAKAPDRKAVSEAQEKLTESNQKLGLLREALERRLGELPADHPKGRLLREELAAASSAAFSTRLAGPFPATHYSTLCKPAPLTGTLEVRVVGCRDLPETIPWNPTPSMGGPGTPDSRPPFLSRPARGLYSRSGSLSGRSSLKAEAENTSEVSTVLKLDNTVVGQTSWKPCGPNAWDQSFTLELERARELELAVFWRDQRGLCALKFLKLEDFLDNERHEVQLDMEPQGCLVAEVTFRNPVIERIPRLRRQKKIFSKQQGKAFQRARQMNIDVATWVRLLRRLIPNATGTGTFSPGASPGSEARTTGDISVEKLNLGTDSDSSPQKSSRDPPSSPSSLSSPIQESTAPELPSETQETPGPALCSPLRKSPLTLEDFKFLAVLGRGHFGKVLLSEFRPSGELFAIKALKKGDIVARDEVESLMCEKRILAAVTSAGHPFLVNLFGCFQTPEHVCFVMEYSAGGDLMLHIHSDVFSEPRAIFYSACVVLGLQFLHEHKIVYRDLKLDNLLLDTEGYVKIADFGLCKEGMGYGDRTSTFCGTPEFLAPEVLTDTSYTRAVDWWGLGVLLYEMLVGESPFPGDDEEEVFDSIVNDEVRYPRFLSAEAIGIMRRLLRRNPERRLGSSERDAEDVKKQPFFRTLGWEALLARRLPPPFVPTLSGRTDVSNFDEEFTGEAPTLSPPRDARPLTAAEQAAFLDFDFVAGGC
Chain of UniProt Q15758 (whole entry, looked up): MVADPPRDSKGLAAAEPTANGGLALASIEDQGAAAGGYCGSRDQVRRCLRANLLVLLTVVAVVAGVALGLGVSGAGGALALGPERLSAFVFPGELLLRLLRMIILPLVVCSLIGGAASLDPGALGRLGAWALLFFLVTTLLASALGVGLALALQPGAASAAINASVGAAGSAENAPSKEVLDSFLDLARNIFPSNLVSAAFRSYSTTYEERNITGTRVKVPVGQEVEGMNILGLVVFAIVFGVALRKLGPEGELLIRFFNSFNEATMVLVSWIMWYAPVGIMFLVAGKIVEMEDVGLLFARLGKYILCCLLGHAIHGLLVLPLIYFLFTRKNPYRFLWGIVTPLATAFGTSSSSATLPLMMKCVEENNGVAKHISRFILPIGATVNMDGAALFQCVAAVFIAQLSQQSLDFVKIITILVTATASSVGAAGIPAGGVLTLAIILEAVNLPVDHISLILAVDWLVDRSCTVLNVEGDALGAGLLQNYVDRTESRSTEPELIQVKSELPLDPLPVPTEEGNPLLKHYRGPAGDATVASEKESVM
Chain of UniProt P31941 (whole entry, looked up): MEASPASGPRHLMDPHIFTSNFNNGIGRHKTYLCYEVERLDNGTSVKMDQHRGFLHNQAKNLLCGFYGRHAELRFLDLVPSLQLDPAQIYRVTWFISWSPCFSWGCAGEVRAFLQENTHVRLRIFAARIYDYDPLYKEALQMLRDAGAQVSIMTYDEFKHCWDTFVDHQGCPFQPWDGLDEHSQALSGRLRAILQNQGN
Chain of UniProt Q9GZT9 (whole entry, looked up): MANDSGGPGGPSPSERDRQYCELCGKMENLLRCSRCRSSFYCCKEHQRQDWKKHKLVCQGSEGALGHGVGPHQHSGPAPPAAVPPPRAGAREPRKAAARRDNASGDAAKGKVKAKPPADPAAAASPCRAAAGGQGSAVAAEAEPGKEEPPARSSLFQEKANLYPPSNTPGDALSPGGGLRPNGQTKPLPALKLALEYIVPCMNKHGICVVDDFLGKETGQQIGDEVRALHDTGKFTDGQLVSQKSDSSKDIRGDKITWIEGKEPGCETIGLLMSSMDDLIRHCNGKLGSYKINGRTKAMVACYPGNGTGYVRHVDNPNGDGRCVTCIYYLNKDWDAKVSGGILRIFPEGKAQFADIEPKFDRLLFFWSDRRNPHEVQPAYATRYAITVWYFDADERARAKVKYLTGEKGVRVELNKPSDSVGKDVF

CC[C@H](C)[C@H](NC(=O)[C@H](CO)NC(=O)CNC(=O)[C@H](CCCNC(=N)N)NC(=O)CNC(=O)[C@H](C)NC(=O)CNC(=O)CCCCCNC(=O)CCCC[C@@H]1SC[C@@H]2NC(=O)N[C@@H]21)C(=O)N[C@@H](CC(=O)O)C(=O)N[C@H](C(=O)N[C@@H](Cc1c[nH]c2ccccc12)C(=O)N[C@H](C(=O)O)C(C)C)[C@@H](C)O — mean bright time (Erbin, PDZ domain (ERBIN, Homo sapiens, UniProt Q96RT1); PDZ-mNG binding, DNA-PAINT; with: 26 nM PDZ-mNG): 159 ± 39 ms
OCC1CCCN(CCNc2cc(-c3ccccc3)nc3ccnn23)C1 (centres unmarked) — signal attenuation (DNA dC->dU-editing enzyme APOBEC-3A (Homo sapiens, UniProt P31941); binding, 1H CPMG NMR): 56.3 ± 4.7%
CC[C@H](C)[C@H](NC(=O)[C@H](CCC(N)=O)NC(=O)[C@@H](NC(=O)[C@@H]1CCCN1[C@@H]1CN(C(=O)[C@H](CCCCN)NC(=O)[C@H](CC(N)=O)NC(=O)[C@@H](NC(=O)[C@@H](NC(=O)[C@H](CCC(N)=O)NC(=O)[C@@H](N)C(C)C)[C@@H](C)CC)[C@@H](C)CC)CC[C@H]1NS(=O)(=O)c1ccc(C)cc1)C(C)C)C(=O)N[C@H](C(=O)N[C@@H](Cc1ccc(O)cc1)C(=O)N[C@@H](CCCCN)C(N)=O)C(C)C — aggregation inhibition (Microtubule-associated protein tau (MAPT, Homo sapiens, UniProt P10636); inhibitor, ThT fluorescence; 5-fold over protein, with: heparin): inhibited
Cc1cn([C@H]2C[C@H](O)[C@@H](COP(=O)(O)OP(=O)(O)C(Cl)(Cl)P(=O)(O)O)O2)c(=O)[nH]c1=O — kpol/Kd (DNA polymerase beta (POLB, Homo sapiens, UniProt P06746); substrate, single turnover kinetics): 15000 ± 7000 M⁻¹ s⁻¹
O=C(O)C1CC(OS(=O)(=O)c2ccc(-c3ccc(F)cc3)cc2)CN1 (centres unmarked) — outward current (Neutral amino acid transporter B(0) (SLC1A5, Homo sapiens, UniProt Q15758); HEK293; 100 µM): 8 ± 2 pA
O=C(O)CCCCC(=O)NNC(=O)c1ccccn1 — complex formation with PHD2 (Egl nine homolog 1 (EGLN1, Homo sapiens, UniProt Q9GZT9); non-denaturing ESI-MS; 15 µM, PHD2 15 µM, with: Fe(II) 30 µM): no binding
COc1cccc(-c2cc(C(F)(F)F)nc(NCc3ccc(F)cc3)n2)c1 — Emax (SCTR; increase of tracer binding, TR-FRET; HEK293 membranes; with: Fluo-Sec 6 nM): 159 ± 12%
Nc1nc2c(ncn2C2CC(O)C(COP(=O)(O)OP(=O)(O)C(F)P(=O)(O)O)O2)c(=O)[nH]1 (mixture of isomers) — kpol/Kd (DNA polymerase beta (POLB, Homo sapiens, UniProt P06746, I260M); nucleotide incorporation, substrate, single turnover kinetics; dG misincorporation opposite A): 6.4 ± 2.1 M⁻¹ s⁻¹
[11CH3]c1ccc2nc(C3CCC3)n(-c3ccc4[nH]ncc4c3)c2n1 — BPND (Voltage-dependent calcium channel gamma-8 subunit (Rattus norvegicus, UniProt Q8VHW5); PET, SRTM; Sprague-Dawley rat, striatum; baseline, unit not given; baseline: cerebellum): 0.65
COc1ccc(-c2cc(C(F)(F)F)nc(SCC(=O)N(C)c3ccccc3)n2)cc1 — increase of binding (SCTR; Fluo-Sec binding, TR-FRET; HEK293 membranes, SNAP-tagged receptor; concentration not given, with: Fluo-Sec): 76%
COc1ccc(-c2cc(C(F)(F)F)nc(S(=O)(=O)NCC(=O)Nc3ccc(C)cc3)n2)cc1 — kinact (Bifunctional 3'-5' exonuclease/ATP-dependent helicase WRN (WRN, Homo sapiens, UniProt Q14191); enzyme activity, inhibitor): 0.00035 s⁻¹
CCCCCCc1ccc(Oc2ccccc2N)c(O)c1 — dissociation rate constant (Enoyl-[acyl-carrier-protein] reductase [NADPH] FabI (Staphylococcus aureus, UniProt Q6GI75); enzyme activity, inhibitor, progress curve kinetics): 0.88 h⁻¹
O=P(O)(O)O[C@@H]1[C@@H](O)[C@H](O)[C@H](O)[C@H](O)[C@H]1OP(=O)(O)O — Hill coefficient (Inositol 1,4,5-trisphosphate-gated calcium channel ITPR1, N-terminal region (Itpr1, Rattus norvegicus, UniProt P29994, del318-332); [3H]IP3 competition binding; N-terminal fragment): 0.8 ± 0.1
C[C@@H](N)[C@H]1CC[C@H](C(=O)Nc2ccncc2)CC1 — activity vs control (Serine/threonine-protein kinase N1 (PKN1, Homo sapiens, UniProt Q16512); enzyme activity, inhibitor, radiometric; 10 µM): < 10%

Excerpt of the above:
CC[C@H](C)[C@H](NC(=O)[C@H](CCC(N)=O)NC(=O)[C@@H](NC(=O)[C@@H]1CCCN1[C@@H]1CN(C(=O)[C@H](CCCCN)NC(=O)[C@H](CC(N)=O)NC(=O)[C@@H](NC(=O)[C@@H](NC(=O)[C@H](CCC(N)=O)NC(=O)[C@@H](N)C(C)C)[C@@H](C)CC)[C@@H](C)CC)CC[C@H]1NS(=O)(=O)c1ccc(C)cc1)C(C)C)C(=O)N[C@H](C(=O)N[C@@H](Cc1ccc(O)cc1)C(=O)N[C@@H](CCCCN)C(N)=O)C(C)C — aggregation inhibition (Microtubule-associated protein tau (MAPT, Homo sapiens, UniProt P10636); inhibitor, ThT fluorescence; 5-fold over protein, with: heparin): inhibited
